Assay results from different studies.
Every numbered part comes from another study and shows a few of its results, in no order.

Sample 1 — method: universal PBM; form: double-stranded DNA, one strand shown; medium: in vitro; tested at: 600 nM; reading: higher = stronger binding; endpoint: E-score
Target: Sal-like protein 4, full length isoform A (SALL4, Homo sapiens, UniProt Q9UJQ4, residues 1-1053)
UniProt Q9UJQ4, sequence (whole entry, looked up): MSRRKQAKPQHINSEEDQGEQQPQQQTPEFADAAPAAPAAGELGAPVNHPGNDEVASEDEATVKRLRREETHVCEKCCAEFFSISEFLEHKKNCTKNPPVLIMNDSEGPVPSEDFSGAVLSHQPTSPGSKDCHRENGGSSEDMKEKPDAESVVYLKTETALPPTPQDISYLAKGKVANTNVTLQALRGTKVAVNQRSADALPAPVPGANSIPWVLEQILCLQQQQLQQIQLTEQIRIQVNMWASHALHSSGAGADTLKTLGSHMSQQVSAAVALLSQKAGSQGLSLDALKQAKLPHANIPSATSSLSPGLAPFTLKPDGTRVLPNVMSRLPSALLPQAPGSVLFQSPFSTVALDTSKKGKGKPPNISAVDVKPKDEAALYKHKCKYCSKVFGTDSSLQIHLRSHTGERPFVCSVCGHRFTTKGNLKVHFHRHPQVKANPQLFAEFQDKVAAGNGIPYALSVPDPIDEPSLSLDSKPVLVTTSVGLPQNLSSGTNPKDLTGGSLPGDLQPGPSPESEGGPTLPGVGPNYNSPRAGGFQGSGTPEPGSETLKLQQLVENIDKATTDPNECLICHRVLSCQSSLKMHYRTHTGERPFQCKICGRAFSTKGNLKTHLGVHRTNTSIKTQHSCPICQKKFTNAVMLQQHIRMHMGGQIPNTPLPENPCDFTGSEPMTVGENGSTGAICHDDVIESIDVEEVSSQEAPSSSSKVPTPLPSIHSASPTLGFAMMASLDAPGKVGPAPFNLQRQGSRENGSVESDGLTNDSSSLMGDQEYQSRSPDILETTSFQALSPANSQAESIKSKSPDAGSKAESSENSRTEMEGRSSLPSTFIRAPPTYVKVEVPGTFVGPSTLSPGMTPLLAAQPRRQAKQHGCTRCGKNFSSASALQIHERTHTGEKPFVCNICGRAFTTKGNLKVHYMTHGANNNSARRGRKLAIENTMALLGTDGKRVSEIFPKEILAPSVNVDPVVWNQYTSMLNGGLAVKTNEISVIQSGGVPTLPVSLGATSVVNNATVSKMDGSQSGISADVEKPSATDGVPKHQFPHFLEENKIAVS
Notes: 8-mer, flanks averaged, mean of replicates
Sequence = GCCGCGGA; value = -0.352
Sequence = CTGGGATC; value = -0.292
Sequence = ATTGAGCC; value = 0.0426
Sequence = GGCTTCGA; value = -0.148
Sequence = GCAAGATA; value = 0.188
Sequence = CGGTCCGC; value = -0.295
Sequence = CCCGGTAG; value = -0.331
Sequence = CCACCGAC; value = -0.327
Sequence = ACCGGTCG; value = -0.287
Sequence = ATCCATCA; value = 0.0609
Sequence = CTAATTCC; value = 0.131
Sequence = AAACCGCC; value = -0.125
Sequence = AAGACACG; value = 0.0814
Sequence = AAGCGATT; value = 0.0931
Sequence = CAATAGTG; value = 0.147
Sequence = CGTGCGTC; value = -0.168
Sequence = AGCGGAGG; value = -0.211
Sequence = TGACGCAA; value = -0.0515
Sequence = AGTGTCGA; value = -0.103
Sequence = GCATTACA; value = 0.0772
Sequence = AGCGATTC; value = -0.0523
Sequence = GTGCTAAA; value = 0.0917
Sequence = ATGCACGC; value = 0.0484
Sequence = CAGACGTA; value = 0.0278
Sequence = TCGAGAGA; value = -0.115

Sample 2 — method: protein-binding microarray; form: double-stranded DNA, one strand shown; medium: in vitro; tested at: 2540 nM top; notes: 60-bp whole probe; added: salmon DNA 0.4 mg/ml; baseline: random background probes; reading: higher = stronger binding; endpoint: fitted relative affinity; constant ends, left off below: GCCTAGCAC … GTCTTGATTCGCTTGACGCTGCTG
Target: Interferon regulatory factor 3, full length, phosphomimetic (IRF3, Homo sapiens, UniProt Q14653, residues 1-427, S386D/S396D/S398D/S402D/T404D/S405D)
Target sequence (chain): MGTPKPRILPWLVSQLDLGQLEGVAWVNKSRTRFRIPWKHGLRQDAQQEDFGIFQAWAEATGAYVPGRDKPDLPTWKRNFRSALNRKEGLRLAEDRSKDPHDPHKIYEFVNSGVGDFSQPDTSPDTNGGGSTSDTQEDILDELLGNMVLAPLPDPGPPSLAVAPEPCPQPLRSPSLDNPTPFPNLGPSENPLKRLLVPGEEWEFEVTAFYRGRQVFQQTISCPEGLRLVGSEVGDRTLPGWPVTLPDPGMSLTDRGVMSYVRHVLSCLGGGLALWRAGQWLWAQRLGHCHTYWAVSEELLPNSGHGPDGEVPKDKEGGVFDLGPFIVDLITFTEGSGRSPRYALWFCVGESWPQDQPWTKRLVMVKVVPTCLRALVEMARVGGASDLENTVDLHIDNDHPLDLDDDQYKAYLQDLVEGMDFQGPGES
Sequence = TTAGGACTAGGACTGGGTTAGTGCTAG; value = -0.578 z-score
Sequence = GACGGTAGCGACACTGGGGACGTGCTA; value = -0.746 z-score
Sequence = TCATTTCCCACTTTCACACTGTGCTAG; value = 3.29 z-score
Sequence = TACGGTATCGGTTTCGGGACGTGCTAG; value = 7.08 z-score
Sequence = TTTTTTTTCATCATTGCCTAGTGCTAG; value = 1.7 z-score
Sequence = TTAGATTTCGGGGATCGATTAGTGCTA; value = 0.512 z-score
Sequence = GACGGTATCTTTATCCTGACGTGCTAG; value = 1.24 z-score
Sequence = ATAGATATCAGTCTCGATTAGTGCTAG; value = 1.42 z-score
Sequence = TTAGCTTCCAGTTTCGATTAGTGCTAG; value = 4.52 z-score
Sequence = GACGGACTGGCGACTGGGGACGTGCTA; value = -0.965 z-score
Sequence = GACGGTTTCGGGTGTCGGGACGTGCTA; value = 3.81 z-score
Sequence = TTAGGACTGGGGTATCTGTTAGTGCTA; value = -0.731 z-score
Sequence = GACGATATCGGGTTGCGAGACGTGCTA; value = 0.304 z-score
Sequence = TACGGTATCCTTATCCTGACGTGCTAG; value = 4.88 z-score
Sequence = TTAGGTTCCCTTTTCCCTTAGTGCTAG; value = 7.51 z-score
Sequence = TCTGACCCCCTGCGCGGCAGGTGCTAG; value = -0.315 z-score
Sequence = TGCTCCTTATGGCTAAAGGGGTGCTAG; value = 1.16 z-score
Sequence = ATGTTTTTCATTGTTTTTCAGTGCTAG; value = 1.05 z-score
Sequence = TTAGGACTGGGTTTGGGTTAGTGCTAG; value = -0.83 z-score
Sequence = TTAGGTTCCCTTTTCCTTTCGTGCTAG; value = 7.9 z-score
Sequence = TTAGGACTCGGGTATCGGTTAGTGCTA; value = 0.212 z-score
Sequence = TTAGGACGGGGGTATCGGTTAGTGCTA; value = 0.577 z-score

Sample 3 — method: RNA Bind-n-Seq; form: RNA; medium: in vitro; tested at: 365 nM; baseline: no-protein control; reading: higher = stronger binding; endpoint: RBNS enrichment (R)
Target: RNA binding protein fox-1 homolog 2, RRM domain, GST-SBP tag (RBFOX2, Homo sapiens, UniProt O43251-10, residues 100-194)
Notes: natural RNA segment, single round, ends assumed
Constant ends, left off below: GGGAGUUCUACAGUCCGACGAUC … UGGAAUUCUCGGGUGCCAA
Construct (chain): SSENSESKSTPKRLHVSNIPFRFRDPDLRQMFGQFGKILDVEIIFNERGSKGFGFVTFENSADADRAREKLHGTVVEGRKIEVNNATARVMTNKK
Sequence = UCUGCAGAGCAGGCCCACUUCCUGUCCCUGAGCCCAUCUUCAUUUCUAGAGGGCUGACCCUGAGCACUCCAGAGUGCUUGCAGAGUUUGAGAAAUGUGAACAUGCUGUGG; value = 0.433
Sequence = GGCCUCAUAUGUUCCAUGAGGAGCUAGGCCUCGUGGAAUGGCUGGCUGACUAAACCCAGAAAGCCAAGGCUCUGCCAGUGGAAGAGACUUCACUUUUGUAGACCUUCCCU; value = 0.21
Sequence = UAUAGCUCCUGAGGGAAGCCAAUCAACUUCUGUUUUCCUACCUGACCUGCAGGGCAUGAUGGAUCAGUGAUGAAAGAAUUGUAGCCUGUGGCACUUUGUUUUGACCUCUG; value = 2.49
Sequence = CACCGCGCUGUGGGUAGUGUGUGACCGUGGCUGUACUGUAUAGUGAACAUAGUUGGCAUAUCUUUGUUUGAAGUUUGUUGGUGACUCCACCAAACUGGUGUGAAAAAAGA; value = 0.543
Sequence = CCAAGACAGGCAGGGAAAUUCUAAUUUCUCUCUUAAGAAAGUAAAUUUCCACUUCACCAGCAAUAACAAUCAGAGGAGACUUGGCCCUCAGUCCUUGUAUUUCUCUUUUU; value = 0.364
Sequence = UUGAGUUUGUUUUACCAGAUGCUCAGCUUGCUAACACACUUGAGAUCAGACCAUACUCUGAGCAGACAUGGAAAGGAUUGCUUUGUGAAGACCAGGGGGAGUCAGGUGGU; value = 2.35
Sequence = CCCCUCAGUUUCCCCACACCCACUGUUGGCUGGAAGUGCUUCCAUUACCACUGUCAGAUUGGAAGUGACCGAAGCAGGGGAUGAAGAGAAAGCUCACAUUCUAAGUAGAG; value = 0.322
Sequence = CUGUGUUUCUUGGCCUCUAGACUCUAACAGGCAGAGUCUAGAGUAAGUUUUAGGGUCUGGGCUGAGUCAAGGUGAGUUCCUCUGCCAGGAAGCCCUUUCUAGGAGGUUGU; value = 0.802
Sequence = UGCCUGAUUUAGCCCUGUGCCUAACAGUUUAAAUCUUAAUGCUAAUGUUAAUUGCUUCCCAGUUGGUUGACCUUAUAAGAAAACACUGUGUGGUAUUUUAAUGUGGUAAA; value = 0.299
Sequence = CUUCAGAUUCGAAGUGGGAGGCAACUCAAUGUGCCUGGGGCUCGCCAUGGGCCCACAGAGUCUCGCUAUCAUCCCCAGCGUCGCAGUGUGGCAGGUGUUUGUAGGCUGUG; value = 0.39
Sequence = CCCUUAGCCUUGCUGUAGAGACUUCCGUCACCCUUGGUAGAGUUUAUUUUUUUGAUGGCUAAGAUACGCUGAUGCUGAAAUAAACUAGGGUUUUGGCCUGCCUGCGUCUG; value = 1.57
Sequence = CUCUGGGACGGGGCACACACAGGCCCAGCCUCUGUGCUGUCUCCUCCUCCGUGCGCCUCAGACUCGGGGUGAGGGAGGCGGGCAGCCUCUCGCCAGCCUUCCCGUCCUUC; value = 0.244

Sample 4 — method: protein binding microarray; form: double-stranded DNA, one strand shown; medium: in vitro; tested at: not given; baseline: not given; reading: higher = stronger binding; endpoint: E-score
Target: Histone acetyltransferase KAT6A, winged helix 2, GST fusion (KAT6A, Homo sapiens, UniProt Q92794, residues 85-181)
Notes: 8-mer, flanks averaged, mean of 2 arrays, mostly near background
Construct (chain): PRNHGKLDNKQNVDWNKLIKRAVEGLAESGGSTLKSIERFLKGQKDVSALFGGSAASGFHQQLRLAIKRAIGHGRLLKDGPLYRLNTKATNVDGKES
Sequence = GGGATGTA; value = -0.0697
Sequence = CGATGTTC; value = -0.0924
Sequence = CAAACGGG; value = 0.0221
Sequence = GCCGGACC; value = 0.0936
Sequence = AGGACAAC; value = 0.0177
Sequence = AGTGACTA; value = -0.0269
Sequence = AGAACGGA; value = 0.00549
Sequence = GAAAAGAA; value = -0.0247
Sequence = ACAGTCGG; value = 0.062
Sequence = GCACACTA; value = 0.00493
Sequence = CGCCTAAG; value = 0.0229
Sequence = ATACGGTC; value = -0.123
Sequence = CTAGGAAC; value = -0.272
Sequence = CTTCCGCC; value = 0.163
Sequence = GTCTAGAA; value = -0.147
Sequence = ATGCAGTC; value = -0.0836
Sequence = ATCCGGGA; value = -0.0216
Sequence = CTCATTGA; value = -0.108
Sequence = ACCATCCT; value = -0.12
Sequence = AGATGTTC; value = 0.0499
Sequence = CTCATGGA; value = -0.159
Sequence = CTTCTCTC; value = 0.0174
Sequence = AGATAATA; value = 0.0193

Sample 5 — method: RNAcompete; form: RNA; medium: in vitro; tested at: 20 nM; notes: 7-mer, probes averaged, single round; baseline: mean of 7-mers; reading: higher = stronger binding; endpoint: 7-mer Z-score
Target: PABPC1L2, full length, GST fusion (mouse, UniProt A0ABA7IW68)
Target sequence (chain): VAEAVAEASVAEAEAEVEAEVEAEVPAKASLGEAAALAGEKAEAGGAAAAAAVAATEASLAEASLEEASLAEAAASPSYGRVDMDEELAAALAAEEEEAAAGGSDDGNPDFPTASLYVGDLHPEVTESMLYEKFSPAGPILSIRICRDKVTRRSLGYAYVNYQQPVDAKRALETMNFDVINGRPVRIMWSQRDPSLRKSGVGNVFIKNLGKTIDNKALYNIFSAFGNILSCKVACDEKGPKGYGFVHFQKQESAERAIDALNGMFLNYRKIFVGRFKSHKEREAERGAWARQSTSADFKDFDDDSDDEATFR
Sequence = CCCGCAG; value = -0.251
Sequence = AAGCUGG; value = 0.184
Sequence = GCAAUUG; value = -0.0881
Sequence = GUUCCUA; value = -0.161
Sequence = CAAGGUC; value = -0.161
Sequence = CCUUCUC; value = -0.489
Sequence = AUAUACC; value = -0.193
Sequence = GCAGUCU; value = 0.0406
Sequence = UAAGGGC; value = 0.283
Sequence = UUCGAAC; value = -0.336
Sequence = AUUGCGG; value = 0.117
Sequence = CCCGAUA; value = -0.204
Sequence = AAAAGUA; value = 5.64
Sequence = GUAAGAU; value = -0.128
Sequence = CAUGGCC; value = -0.0699
Sequence = AGGUCUU; value = -0.211
Sequence = GAAGCCU; value = -0.266

Some of these lines once more (sample 5):
Sequence = GCAAUUG; value = -0.0881
Sequence = GUUCCUA; value = -0.161
Sequence = CAAGGUC; value = -0.161
Sequence = CCUUCUC; value = -0.489
Sequence = AUAUACC; value = -0.193
Sequence = GCAGUCU; value = 0.0406
Sequence = UAAGGGC; value = 0.283
Sequence = UUCGAAC; value = -0.336
Sequence = AUUGCGG; value = 0.117
Sequence = CCCGAUA; value = -0.204
